Measured values pooled from the literature.
A part holds a random share of what one study measured. Substitutions count along the parent as printed.
UniProt Q9SKN5, sequence (whole entry, looked up): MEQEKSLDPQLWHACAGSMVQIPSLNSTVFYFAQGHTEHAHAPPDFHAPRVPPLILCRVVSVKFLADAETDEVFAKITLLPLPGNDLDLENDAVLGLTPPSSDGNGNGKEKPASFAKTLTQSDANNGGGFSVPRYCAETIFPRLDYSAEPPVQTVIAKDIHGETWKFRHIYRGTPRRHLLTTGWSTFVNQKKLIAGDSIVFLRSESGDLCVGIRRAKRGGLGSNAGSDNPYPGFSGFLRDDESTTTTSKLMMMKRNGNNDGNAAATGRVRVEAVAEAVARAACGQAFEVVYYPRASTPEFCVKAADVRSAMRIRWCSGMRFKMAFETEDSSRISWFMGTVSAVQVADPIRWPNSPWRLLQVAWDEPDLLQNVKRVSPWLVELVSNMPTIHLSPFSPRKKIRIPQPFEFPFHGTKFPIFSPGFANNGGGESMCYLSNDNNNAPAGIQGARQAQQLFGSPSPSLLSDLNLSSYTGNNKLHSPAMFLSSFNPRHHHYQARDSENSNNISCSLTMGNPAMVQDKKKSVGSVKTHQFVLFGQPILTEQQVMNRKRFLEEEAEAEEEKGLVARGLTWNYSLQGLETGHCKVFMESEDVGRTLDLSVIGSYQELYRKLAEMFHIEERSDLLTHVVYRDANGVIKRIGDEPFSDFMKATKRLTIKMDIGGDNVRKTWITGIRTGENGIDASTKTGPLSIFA
UniProt P93024, sequence (whole entry, looked up): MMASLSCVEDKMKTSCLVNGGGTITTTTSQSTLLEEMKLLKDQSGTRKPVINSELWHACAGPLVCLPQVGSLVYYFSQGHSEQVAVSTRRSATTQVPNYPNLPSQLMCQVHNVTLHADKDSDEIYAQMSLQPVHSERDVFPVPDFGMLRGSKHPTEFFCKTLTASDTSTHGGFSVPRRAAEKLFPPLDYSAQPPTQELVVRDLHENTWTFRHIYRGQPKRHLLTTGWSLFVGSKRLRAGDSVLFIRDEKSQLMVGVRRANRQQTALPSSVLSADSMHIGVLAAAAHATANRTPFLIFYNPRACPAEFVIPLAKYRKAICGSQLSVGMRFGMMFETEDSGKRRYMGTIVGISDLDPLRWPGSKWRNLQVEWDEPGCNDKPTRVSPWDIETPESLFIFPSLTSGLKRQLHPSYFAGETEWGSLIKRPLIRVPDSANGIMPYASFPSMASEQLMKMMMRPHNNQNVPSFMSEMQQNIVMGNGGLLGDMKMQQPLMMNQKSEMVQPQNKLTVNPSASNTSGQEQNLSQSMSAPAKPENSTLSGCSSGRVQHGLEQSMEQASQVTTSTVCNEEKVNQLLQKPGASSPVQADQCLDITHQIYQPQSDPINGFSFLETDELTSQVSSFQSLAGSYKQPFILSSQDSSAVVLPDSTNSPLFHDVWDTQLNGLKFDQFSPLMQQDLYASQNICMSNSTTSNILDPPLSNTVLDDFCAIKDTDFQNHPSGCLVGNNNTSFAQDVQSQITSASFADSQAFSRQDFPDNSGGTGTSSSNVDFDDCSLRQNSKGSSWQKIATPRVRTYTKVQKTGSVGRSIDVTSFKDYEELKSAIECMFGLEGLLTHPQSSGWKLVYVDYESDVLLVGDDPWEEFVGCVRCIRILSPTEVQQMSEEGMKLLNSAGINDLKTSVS
UniProt Q9FKM7, sequence (whole entry, looked up): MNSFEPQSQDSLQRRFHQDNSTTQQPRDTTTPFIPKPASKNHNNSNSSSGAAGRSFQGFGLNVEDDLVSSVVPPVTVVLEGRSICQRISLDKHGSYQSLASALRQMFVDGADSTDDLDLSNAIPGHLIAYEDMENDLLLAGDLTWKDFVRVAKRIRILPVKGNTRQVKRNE
UniProt Q8RYC6, sequence (whole entry, looked up): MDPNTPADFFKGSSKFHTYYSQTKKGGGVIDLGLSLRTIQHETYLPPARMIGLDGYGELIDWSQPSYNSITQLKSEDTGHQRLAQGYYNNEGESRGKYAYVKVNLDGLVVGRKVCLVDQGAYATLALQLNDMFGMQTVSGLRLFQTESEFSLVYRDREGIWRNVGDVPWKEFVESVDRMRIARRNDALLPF
UniProt Q94JM3, sequence (whole entry, looked up): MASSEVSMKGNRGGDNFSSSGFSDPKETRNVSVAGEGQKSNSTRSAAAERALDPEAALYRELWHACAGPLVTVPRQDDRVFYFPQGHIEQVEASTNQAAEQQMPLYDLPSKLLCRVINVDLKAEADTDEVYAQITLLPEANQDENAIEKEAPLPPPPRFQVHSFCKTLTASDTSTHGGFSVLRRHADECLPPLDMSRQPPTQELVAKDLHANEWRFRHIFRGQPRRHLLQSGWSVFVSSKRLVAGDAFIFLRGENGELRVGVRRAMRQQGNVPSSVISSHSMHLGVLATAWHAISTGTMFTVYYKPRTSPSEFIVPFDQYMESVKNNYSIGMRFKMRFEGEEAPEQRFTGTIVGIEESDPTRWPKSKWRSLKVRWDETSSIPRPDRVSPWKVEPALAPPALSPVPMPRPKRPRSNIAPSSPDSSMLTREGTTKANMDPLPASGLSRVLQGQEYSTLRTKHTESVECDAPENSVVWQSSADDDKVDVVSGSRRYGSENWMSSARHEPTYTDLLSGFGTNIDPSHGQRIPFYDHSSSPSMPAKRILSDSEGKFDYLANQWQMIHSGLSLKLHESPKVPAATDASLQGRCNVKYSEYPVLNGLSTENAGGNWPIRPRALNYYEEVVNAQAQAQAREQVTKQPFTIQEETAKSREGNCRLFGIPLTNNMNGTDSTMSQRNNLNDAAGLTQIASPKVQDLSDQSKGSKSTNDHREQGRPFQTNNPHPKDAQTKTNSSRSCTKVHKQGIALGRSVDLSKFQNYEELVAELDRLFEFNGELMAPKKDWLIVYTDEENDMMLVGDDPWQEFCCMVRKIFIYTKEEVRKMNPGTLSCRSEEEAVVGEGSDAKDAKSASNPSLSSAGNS
UniProt P48730, sequence (whole entry, looked up): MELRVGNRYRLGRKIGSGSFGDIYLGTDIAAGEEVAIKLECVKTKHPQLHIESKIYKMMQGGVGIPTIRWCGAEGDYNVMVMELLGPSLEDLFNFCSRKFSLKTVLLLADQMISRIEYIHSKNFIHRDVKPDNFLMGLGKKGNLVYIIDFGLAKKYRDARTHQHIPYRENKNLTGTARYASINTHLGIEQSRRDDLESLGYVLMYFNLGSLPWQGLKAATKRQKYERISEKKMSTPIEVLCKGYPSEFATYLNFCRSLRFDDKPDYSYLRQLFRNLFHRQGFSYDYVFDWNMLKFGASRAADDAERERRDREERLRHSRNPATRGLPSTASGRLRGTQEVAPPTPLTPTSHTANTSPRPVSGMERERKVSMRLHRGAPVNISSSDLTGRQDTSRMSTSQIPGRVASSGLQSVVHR
UniProt Q8RYC8, sequence (whole entry, looked up): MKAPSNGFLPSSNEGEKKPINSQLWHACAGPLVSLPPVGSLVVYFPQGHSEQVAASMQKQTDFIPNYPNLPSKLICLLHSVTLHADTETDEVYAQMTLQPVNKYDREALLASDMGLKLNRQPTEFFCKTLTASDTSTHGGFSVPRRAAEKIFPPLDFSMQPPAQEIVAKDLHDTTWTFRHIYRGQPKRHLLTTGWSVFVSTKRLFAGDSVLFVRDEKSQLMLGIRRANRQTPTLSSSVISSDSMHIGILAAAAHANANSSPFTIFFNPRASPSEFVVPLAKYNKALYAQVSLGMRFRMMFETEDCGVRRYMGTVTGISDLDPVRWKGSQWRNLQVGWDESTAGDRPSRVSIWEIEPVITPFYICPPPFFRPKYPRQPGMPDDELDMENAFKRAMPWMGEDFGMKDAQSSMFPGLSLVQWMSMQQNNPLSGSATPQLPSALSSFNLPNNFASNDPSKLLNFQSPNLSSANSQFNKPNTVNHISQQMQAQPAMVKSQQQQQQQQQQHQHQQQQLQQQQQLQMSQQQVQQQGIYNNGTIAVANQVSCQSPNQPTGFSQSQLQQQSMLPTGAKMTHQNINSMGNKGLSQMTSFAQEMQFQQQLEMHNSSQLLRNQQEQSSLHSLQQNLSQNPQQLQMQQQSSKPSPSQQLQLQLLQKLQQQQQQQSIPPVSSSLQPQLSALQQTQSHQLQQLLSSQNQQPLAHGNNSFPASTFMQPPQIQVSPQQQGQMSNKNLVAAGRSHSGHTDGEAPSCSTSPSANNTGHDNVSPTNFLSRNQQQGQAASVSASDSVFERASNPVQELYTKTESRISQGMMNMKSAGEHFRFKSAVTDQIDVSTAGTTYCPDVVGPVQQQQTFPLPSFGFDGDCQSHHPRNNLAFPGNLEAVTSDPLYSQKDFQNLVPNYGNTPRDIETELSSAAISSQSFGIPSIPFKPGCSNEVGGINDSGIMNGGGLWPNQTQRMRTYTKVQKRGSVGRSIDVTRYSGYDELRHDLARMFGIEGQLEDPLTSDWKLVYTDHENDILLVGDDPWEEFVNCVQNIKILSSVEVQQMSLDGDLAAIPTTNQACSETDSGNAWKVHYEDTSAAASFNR

Study 1
Sequence: B1 (IAA31)
Method: two-hybrid
Direction: higher = firmer interaction
B1: IAA31 (Arabidopsis thaliana, UniProt Q8H174); chain MEVSNSCSSFSSSSVDSTKPSPSESSVNLSLSLTFPSTSPQREARQDWPPIKSRLRDTLKGRRLLRRGDDTSLFVKVYMEGVPIGRKLDLCVFSGYESLLENLSHMFDTSIICGNRDRKHHVLTYEDKDGDWMMVGDIPWDMFLETVRRLKITRPERY
partner | how to read | positive tests
ARF10 575-693 (Arabidopsis thaliana, UniProt Q9SKN5) | baseline: out of 2 tests | 0
IAA33 (Arabidopsis thaliana, UniProt Q9FKM7) | baseline: out of 2 tests | 1
ARF19 948-1086 (Arabidopsis thaliana, UniProt Q8RYC8) | baseline: out of 2 tests | 1
ARF5 788-902 (Arabidopsis thaliana, UniProt P93024) | baseline: out of 2 tests | 2
ARF2 727-859 (Arabidopsis thaliana, UniProt Q94JM3) | baseline: out of 4 tests | 1
IAA32 (Arabidopsis thaliana, UniProt Q8RYC6) | baseline: out of 4 tests | 1

Study 2
Target: CEP164, C-terminal peptide (human)
Method: DHFR complementation, deep sequencing
Medium: yeast
Notes: single substitutions, model-inferred values
Baseline: wild type
Direction: higher = weaker binding
Starting sequence: PDZK1, PDZ domain 2 (human); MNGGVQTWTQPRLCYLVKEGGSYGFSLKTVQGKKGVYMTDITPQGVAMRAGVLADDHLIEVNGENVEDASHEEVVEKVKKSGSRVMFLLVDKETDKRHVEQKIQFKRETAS; partner HNRVKVYRF
Variant | binding free energy change [kcal/mol]
K79L | -0.383
L88G | -0.181
V30G | 0.687
M1H | -0.119
F87N | 1.8
G45Y | 1.51
G4C | 0.0195
M1K | -0.166

Study 3
Target: ABI1, truncated, D143A, DHFR fusion (Arabidopsis thaliana)
Method: DHFR PCA, deep sequencing
Medium: yeast
Notes: methotrexate growth selection, single substitutions
With: (+)-ABA 0.39 µM
Baseline: wild-type fitted maximum
Direction: higher = stronger binding
Starting sequence: PYL1, truncated, DHFR fusion (Arabidopsis thaliana); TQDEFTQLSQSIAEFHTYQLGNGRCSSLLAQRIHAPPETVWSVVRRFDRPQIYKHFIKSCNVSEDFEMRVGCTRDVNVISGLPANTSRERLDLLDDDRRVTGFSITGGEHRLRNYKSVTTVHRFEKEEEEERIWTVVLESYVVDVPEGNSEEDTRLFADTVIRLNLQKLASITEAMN
Variant | relative binding score [%]
G71F | -3.59
T39P | -2.67
N149D | 18.1
R123E | 60.5
C60E | -5.23
R163I | -13.6
S171V | 35.2
D96M | -18

Single results of other studies
Compound | target | test | setting | how to read | endpoint | result
NCCNc1ncc(C(N)=O)c(Nc2cccc(C(F)(F)F)c2)n1 | Casein kinase I isoform delta (CSNK1D, Homo sapiens, UniProt P48730) | enzyme activity, inhibitor | 0.5 µM | baseline: control | remaining activity | 85.1%
